# Results collected from several papers.
# A part holds a random share of what one study measured. Changes are numbered by the printed parent chain.

# Sample 1 — method: Sort-seq; item: YFP reporter; sample: E. coli; setting: PhoQ-PhoP variant library; together with: 10 µM Mg2+; baseline: high Mg2+ state; direction: higher = stronger signaling
# Substance: PhoQ, residues 284 288 289 292 302 303 ALSMDL
target,fold induction
"PhoP, residues 12 14 15 18 19 TQAML (Escherichia coli, UniProt P23836)",1.57
"PhoP, residues 12 14 15 18 19 NQCAL (Escherichia coli, UniProt P23836)",6.21
"PhoP, residues 12 14 15 18 19 LHTVL (Escherichia coli, UniProt P23836)",2.08

# Sample 2 — method: RNA Bind-n-Seq; form: RNA; sample: in vitro; tested at: 365 nM; baseline: no-protein control; direction: higher = stronger binding
# Target: RNA binding protein fox-1 homolog 2, RRM domain, GST-SBP tag (RBFOX2, Homo sapiens, UniProt O43251-10, residues 100-194)
# Setting: natural RNA segment, single round, ends assumed
# Constant ends, left off below: GGGAGUUCUACAGUCCGACGAUC … UGGAAUUCUCGGGUGCCAA
# Target sequence (chain): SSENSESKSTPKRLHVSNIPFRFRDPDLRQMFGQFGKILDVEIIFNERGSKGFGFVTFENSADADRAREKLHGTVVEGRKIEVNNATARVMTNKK
Strand,RBNS enrichment (R)
GAUGAAUCUUGCGUUUUUUACAAAUUGGAGCAGGGACAGAUCAUAGAUUUCUGAUUUUAUGUAAAAUUUUGCCUAAUACAUUAAAGCAGUCACUUUUCCUGUGCUGUUUC,0.569
CUGAAAUUUUAUUUUUCCACAACAGGGUGAUUGGCAGUGGUUGUUCUCCCUUUUUCUGACAGUGUGGUUCAGCUCCUGUUUCAGAUUCUGUGUCAUUUUUCAAUUUACAA,0.828
UAACACAGAACGAGGUUAUCUAGGGUUGUAGCUUUUGAUACAACUCCCCGAUCUAGAUUUAUUCCUACAUUCUGAAUGGGGAGCAGGUAAGAGCAGAGCACCUCCCACUG,2.02
GGUCCAGGGCUGAUCAAAGAACUCUGACUGCAGAACUGCCGCUCUCAGUGGACAGGGCAUCUGUUACCCUGAGACCUGUGGCAGACACGUCUUGUUUUCAUUUGAUUUUU,0.444
AAGUUUUUGAAGCUGGGAGGAAAAAGAUGGAGUAGCUUGGAAAGAUUCCAGCACUGAGCCGUGGGCCGGUCAUGAGCCACGAUAAAAAAUGCCAGUUUGGCAAACUCAGC,1.9
AGUGCUGUUUGCUUUUAGGUCUGGGUGCUCAGGGGCCCUCACUGAUACAAGAGCCCAUCUCUUCUCCUCACCUCACUGGAGCCACAGAAGCCAGGCAGCAGCUACAGGAG,0.434
UGAAUGACCUGAUGUCAGAUUUAGAUUCUUCCUGGGGAUUACACAGCUAUGAAUGUAUUUGCUUCUAAAACCUCCCAAAGUGAAUCUAAUCUUAAAACUACAAGUUGUAA,8.59
GAAAACCUGUUAUUACCUGUGUGCUUUUCACUUGGUUGUUCAUGAACUGCAGAGGGGGCUCCUUGAGUUCUGUCUGCACAAGAAACUGCACUGCAAGUUUUGAAGGAGUC,0.327

# Sample 3 — method: DHFR PCA, deep sequencing; sample: yeast; together with: (+)-ABA 0 µM; baseline: wild-type fitted maximum; direction: higher = stronger binding
# Target: ABI1, truncated, D143A, DHFR fusion (Arabidopsis thaliana)
# Setting: methotrexate growth selection, single substitutions
# Starting sequence: PYL1, truncated, DHFR fusion (Arabidopsis thaliana); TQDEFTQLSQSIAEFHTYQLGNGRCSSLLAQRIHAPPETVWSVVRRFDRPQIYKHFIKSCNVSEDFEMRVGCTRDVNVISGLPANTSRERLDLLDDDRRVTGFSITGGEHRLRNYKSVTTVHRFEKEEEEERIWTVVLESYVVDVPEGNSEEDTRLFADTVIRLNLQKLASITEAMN
Substitution,relative binding score [%]
Y141G,-4.09
R113A,11
N114F,-9.36
Q51V,-6.6
A175T,17.8
H55I,15
L8M,0.489
V78H,52.5
S80Q,9.38
L20M,25.1
E139C,5.02
E64N,24.8

# Sample 4 — target: CCND2, cyclin fold, Cln2 fusion (human); method: yeast growth competition, sequencing; sample: yeast; setting: weak parent motif; baseline: not given; direction: higher = stronger binding
# Starting sequence: E2F1 docking peptide (human); PPVKRRLDLETDH
Substitution,normalised enrichment score
H13S,0.462
R6L,0.308
V3R,0.489
E10C,0.203
H13K,0.446
T11V,-0.0386
L7Y,0.14
L7S,0.0621
P1H,0.466
T11W,0.557
T11Y,0.68
L7M,0.348
R6E,0.568
R6W,0.223
L9F,1.75
T11K,0.588
R6G,0.188

# Excerpt of the above (sample 3):
Substitution,relative binding score [%]
V78H,52.5
S80Q,9.38
